Experimental data collected from several papers.
± gives the spread as reported.

C=C(NC(=O)c1csc(-c2nc3c(cc2O)-c2nc(cs2)C(=O)NC(C(C)O)C(=O)NC(=C(C)OC)c2nc(cs2)C(=O)NC2c4nc(cs4)C(=O)NC(COC(=O)c4c5c6c(cccc6n4O)COC(=O)C(OC4CC(C)(O)C(N(C)C)C(C)O4)C2OC5)c2nc-3cs2)n1)C(N)=O (stereo not shown)
Tmax (ICR mice, Streptococcus pneumoniae ATCC 49169 infected, immunocompromised, blood; intravenous, 2 mg/kg/day once daily): 4.8 min

CC[C@H](C)[C@H](NC(=O)CNC(=O)[C@H](C)NC(=O)[C@H](CC(=O)O)NC(=O)[C@H](CO)NC(=O)[C@H](C)NC(=O)[C@H](CC(C)C)NC(=O)[C@H](CCCCN)NC(=O)[C@H](CCCCN)NC(=O)[C@H](CCSC)NC(=O)[C@H](CC(N)=O)NC(=O)[C@H](Cc1ccccc1)NC(=O)[C@H](CC(=O)O)NC(=O)[C@@H](N)CCSC)C(=O)N[C@@H](Cc1c[nH]c2ccccc12)C(=O)N[C@@H](Cc1ccccc1)C(=O)N[C@H](C(=O)N[C@@H](CCCNC(=N)N)C(=O)N[C@@H](C)C(=O)N[C@H](C(=O)N[C@@H](CCC(N)=O)C(=O)N[C@@H](Cc1ccccc1)C(=O)N[C@H](C(=O)N[C@@H](CCC(=O)O)C(=O)N[C@@H](CCC(=O)O)C(=O)N[C@@H](CCCCN)C(=O)N[C@@H](Cc1ccccc1)C(=O)NCC(=O)N[C@@H](CCC(N)=O)C(=O)N[C@@H](C)C(N)=O)[C@@H](C)O)C(C)C)[C@@H](C)O
helical content (circular dichroism; 25% DOPS/75% DOPC liposomes; 1 mM lipid): 12%

Cc1cc(-c2ccc(C(=O)[C@@H]3CCCC[C@H]3C(=O)Nc3cnn4c3C(=O)NCC4)cc2)[nH]n1
recovery of radioactivity per interval (human, faeces; oral, 200 mg, 0-24 h; baseline: dose): 5.79%

O=C(Nc1cnccc1-c1ccc([18F])cc1)c1ccnc(NC(=O)C2CC2)c1
SUV (ex vivo gamma counting; GSK-3β transgenic mice, early-stage, bladder; intravenous, 120 min, mean, P-gp inhibitor pretreatment, together with: tariquidar 15 mg/kg iv): 0.94

CC(C)(C)C(=O)Nc1ccc2[nH]c(CN3CCC(N(CCCN4CCOCC4)CC4OC(n5cnc6c(N)ncnc65)C(O)C4O)CC3)nc2c1 (stereo not shown)
concentration (male Sprague-Dawley rat, plasma; intraperitoneal, 20 mg/kg, 1 h): 1100 ng/mL

Cc1nc(N)nc2c1C(=O)N[C@@H](c1ccc(F)cc1-c1cccc(O[11CH3])n1)C2
tracer uptake (ex vivo biodistribution; mice, U87 subcutaneous xenograft, liver; 60 min post-injection, baseline, vehicle pre-treatment): 14.7 ± 0.8 %ID

CC(=O)N[C@@H](CC(C)C)C(=O)N[C@H](C(=O)N[C@@H](Cc1ccccc1)C(=O)N[C@H]1CCSc2c(F)c(F)c(c(F)c2F)SCC[C@@H](C(=O)N[C@@H](CCC(N)=O)C(=O)N[C@@H](CC(C)C)C(=O)N[C@H](C(=O)N[C@@H](CO)C(N)=O)[C@@H](C)O)NC(=O)[C@H](Cc2c[nH]c3ccccc23)NC(=O)[C@H](Cc2ccc(O)cc2)NC(=O)[C@H](CCC(=O)O)NC1=O)[C@@H](C)O
HPLC retention time (reversed-phase HPLC, C18; N-acetylated peptide): 16.4 min

CC[C@H](C)[C@@H]1NC(=O)[C@H](Cc2ccc(O)cc2)NC(=O)CCCSC[C@@H](C(=O)N(CC(=O)N[C@@H](CC(C)C)C(=O)NCC(N)=O)Cc2ccc(F)cc2)NC(=O)[C@H](CC(N)=O)NC(=O)[C@H](CCC(N)=O)NC1=O
AEs leading to discontinuation (human; intranasal, 50 µg repeated doses): 0%

O=C(Nc1ccccc1)C1(C(F)(F)F)CCC1
solubility (PBS; 2 h, pH 7.4, 25 °C): ≥ 400 µM

COCCN(C)C(C)C(=O)NC(Cc1ccc(-c2ccccc2)cc1)B(O)O (stereo not shown)
Papp A→B (Caco-2): 17 ×10⁻⁶ cm/s

CCCCC/C=C\CCCO[Si](CCCCN(C)C)(OCCC/C=C\CCCCC)OCCC/C=C\CCCCC
zeta potential (pH 7.5, formulated): 0.98 mV

COc1cccc(OC)c1-c1cc(C(=O)NC2(C(=O)O)C3CC4CC(C3)CC2C4)nn1-c1ccc(C(=O)N(C)CCOCCOCCN(C)C(=O)[C@H](CCCCNC(=O)[C@H](CC(C)C)NC(=O)C2OC2C(=O)O)NC(=O)CN2CCN(CC(=O)[O-])CCN(CC(=O)[O-])CCN(CC(=O)[O-])CC2)cc1C(C)C.[177Lu+3] (mixture of isomers)
tumour-to-small intestine ratio (mouse HT-29 xenograft; 24 h, biodistribution; baseline: tumour over small intestine): 12.2

Nc1nonc1-c1nnc2c(n1)-c1ccccc1C2=O
AUC (ICR mice, plasma; intraperitoneal, 30 mg/kg): 13.1 ± 0.85 µM·h

For quick reference, copied from above:
Cc1cc(-c2ccc(C(=O)[C@@H]3CCCC[C@H]3C(=O)Nc3cnn4c3C(=O)NCC4)cc2)[nH]n1
recovery of radioactivity per interval (human, faeces; oral, 200 mg, 0-24 h; baseline: dose): 5.79%

O=C(Nc1cnccc1-c1ccc([18F])cc1)c1ccnc(NC(=O)C2CC2)c1
SUV (ex vivo gamma counting; GSK-3β transgenic mice, early-stage, bladder; intravenous, 120 min, mean, P-gp inhibitor pretreatment, together with: tariquidar 15 mg/kg iv): 0.94
